Measured values pooled from the literature.
Parts stem from different laboratories: compare values within a part only. Substitutions count along the parent as printed.

Set 1
Target: CCND3, cyclin fold, Cln2 fusion (human)
Method: yeast growth competition, sequencing
Medium: yeast
Setting: weak parent motif
Relative to: not given
Direction: higher = stronger binding
Parent: PLK5 docking peptide (human); IFRKVGQRLLTQC
Under “normalised enrichment score”, `IFRKVGQRLLTQA [C13A]` is recorded as 0.168.
Under “normalised enrichment score”, `IFAKVGQRLLTQC [R3A]` is recorded as 0.191.
For `IFRKVAQRLLTQC [G6A]`, “normalised enrichment score” read -0.0879.
`IFRKVGQRLATQC [L10A]` — result for “normalised enrichment score”: 0.074.
`IFRKVGQRLLTAC [Q12A]` — result for “normalised enrichment score”: -0.057.
`IFRAVGQRLLTQC [K4A]` — result for “normalised enrichment score”: -0.34.

Set 2
Target: Histone acetyltransferase KAT6A, winged helix 1, GST fusion (KAT6A, Homo sapiens, UniProt Q92794, residues 1-85)
Method: protein binding microarray
Form: double-stranded DNA, one strand shown
Medium: in vitro
Concentration: not given
Setting: 8-mer, flanks averaged, mean of 2 arrays, mostly near background
Relative to: not given
Direction: higher = stronger binding
Residues (chain): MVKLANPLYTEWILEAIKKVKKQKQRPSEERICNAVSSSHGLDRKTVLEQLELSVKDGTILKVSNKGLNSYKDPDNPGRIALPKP
`GCTAAAGC` has an E-score of -0.00808.
The E-score of `CCATAAAG` is reported as -0.217.
The E-score of `AATACATC` is reported as -0.0961.
`ATACCTCA` has an E-score of -0.205.
For `GCAGACGC`, the E-score was 0.19.
`CTTAAACA` gave an E-score of -0.0342.
`AGAGTGAG` gave an E-score of -0.208.
With `GGGACCCA` the E-score was -0.0174.
For `GCTAGGAA`, the E-score was -0.19.
`AGACCTAC` gave an E-score of -0.0562.
For `CGTGCAAA`, the E-score was -0.0711.
The E-score of `TGAGCGCA` is reported as 0.0876.
`AGCCGACT` has an E-score of 0.218.
With `CCAAGACA` the E-score was -0.295.

Set 3
Target: CRIPT, C-terminal peptide
Method: DHFR complementation, deep sequencing
Medium: yeast
Setting: single substitutions, model-inferred values
Relative to: wild type
Direction: higher = weaker binding
Parent: ERBIN, PDZ domain 1 (human); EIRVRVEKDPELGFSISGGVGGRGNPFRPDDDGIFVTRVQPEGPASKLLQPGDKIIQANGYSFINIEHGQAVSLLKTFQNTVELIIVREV; partner TKNYKQTSV
`D31P` — result for “binding free energy change”: 1.44 kcal/mol.
Under “binding free energy change”, `P44W` is recorded as 1.1 kcal/mol.
`N65A`: “binding free energy change” 0.026 kcal/mol.
For `E89D`, “binding free energy change” read 0.00299 kcal/mol.
Under “binding free energy change”, `S46D` is recorded as 0.0393 kcal/mol.
`R5N`: “binding free energy change” 0.134 kcal/mol.
`I55M` — result for “binding free energy change”: 0.176 kcal/mol.
Under “binding free energy change”, `G52K` is recorded as 0.307 kcal/mol.

Further values, each from its own experiment
`PhoQ, residues 284 288 289 292 302 303 SCEHLI` gave a fold induction of 13.4 (PhoP, residues 12 14 15 18 19 LWHCS (Escherichia coli, UniProt P23836); Sort-seq, refers to: YFP reporter; E. coli; PhoQ-PhoP variant library, added: 10 µM Mg2+; relative to: high Mg2+ state, higher = stronger signaling).

Excerpt of the above (set 1):
Under “normalised enrichment score”, `IFAKVGQRLLTQC [R3A]` is recorded as 0.191.
For `IFRKVAQRLLTQC [G6A]`, “normalised enrichment score” read -0.0879.
`IFRKVGQRLATQC [L10A]` — result for “normalised enrichment score”: 0.074.
`IFRKVGQRLLTAC [Q12A]` — result for “normalised enrichment score”: -0.057.
